Measurements of several laboratories.
Each numbered part is a random draw from the data of one study; scales do not carry over between parts.

Set 1 — method: RNA Bind-n-Seq; molecule type: RNA; matrix: in vitro; concentration: 200 nM; setting: whole 134-nt RNA, ends assumed; with: 150 mM KCl; baseline: input library; direction: higher = stronger binding
Target: Ras GTPase-activating protein-binding protein 1, full length (G3BP1, Homo sapiens, UniProt Q13283)
Chain of UniProt Q13283 (whole entry, looked up): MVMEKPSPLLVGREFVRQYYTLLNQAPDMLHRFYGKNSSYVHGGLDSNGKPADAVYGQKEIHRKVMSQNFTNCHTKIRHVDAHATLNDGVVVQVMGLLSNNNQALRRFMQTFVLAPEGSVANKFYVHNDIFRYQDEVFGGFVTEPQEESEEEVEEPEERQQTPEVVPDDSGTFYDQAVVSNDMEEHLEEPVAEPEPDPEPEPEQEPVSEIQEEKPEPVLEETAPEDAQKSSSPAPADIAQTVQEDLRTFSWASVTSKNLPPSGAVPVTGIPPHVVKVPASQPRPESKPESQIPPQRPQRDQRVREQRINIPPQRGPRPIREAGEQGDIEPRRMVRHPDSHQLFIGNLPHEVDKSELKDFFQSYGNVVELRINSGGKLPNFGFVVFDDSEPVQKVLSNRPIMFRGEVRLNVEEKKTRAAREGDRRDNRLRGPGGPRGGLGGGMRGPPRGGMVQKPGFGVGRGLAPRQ
Oligonucleotide	log2 enrichment
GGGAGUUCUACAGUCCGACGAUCCCUCAAGUCCUGUGCUACACAUCGUAUGUACCGAAUCGGGGUGGUGGGUGGGGAAAGUAUUAUGUUACGCCGUUCGGAUCUGCACUUCCAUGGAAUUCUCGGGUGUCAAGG	1.02
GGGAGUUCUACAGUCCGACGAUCACCAUGCAGGUGGGCAUCUUUGGGAAGUGGGGCAAGGGGGGGACAGGGAGGGGGGUAACACUUUGGGAACAGGUGGUCCCAGGUCGUUUCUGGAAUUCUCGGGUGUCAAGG	1.28
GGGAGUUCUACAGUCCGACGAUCCCUCAAGUCCUGUGCUACACAUCGUAUGUACCGAAUCGGCCGGCCGGCCGGGGAAAGUAUUAUGUUACGCCGUUCGGAUCUGCACUUCCAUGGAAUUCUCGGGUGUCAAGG	0.744
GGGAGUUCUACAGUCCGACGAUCAAGUCCUGUGCUACACAUCGUAUGUACCGAAUCGGAGGAAAAAAAGGUUUUUUUGGAAAGUAUUAUGUUACGCCGUUCGGAUCUGCACUUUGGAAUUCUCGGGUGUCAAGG	-1.43
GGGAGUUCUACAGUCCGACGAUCGCAGGAAGUAAAAACAAAUGGAAAUGCUUCGGAUAGUGGCAGGGGUGGGGGUUGCUAAGGAAAGGGUGGGAUGGGAGUGGGUAAAGCGUUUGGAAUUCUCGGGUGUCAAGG	1.03
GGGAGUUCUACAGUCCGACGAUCACCAUGCAGGUGGGCAUCUUUGGGAAAAGGGGCAAGGGGGGGAUAGGGAGGGGGGUAACACUUUGGGAACAGGUGGUCCCAGGUCGUUUCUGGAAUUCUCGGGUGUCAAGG	1.43
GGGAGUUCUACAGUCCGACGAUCGUCCUGUGCUACACAUCGUAUGUACCGAAUCGGCCCCCGGGGCCCCCGGGCCCCCGGGAAAGUAUUAUGUUACGCCGUUCGGAUCUGCACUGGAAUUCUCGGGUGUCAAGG	-0.604
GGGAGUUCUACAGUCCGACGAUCUCAAGUCCUGUGCUACACAUCGUAUGUACCGAAUCGGGAAAGGGAAAGGAAAGGAAAGUAUUAUGUUACGCCGUUCGGAUCUGCACUUCCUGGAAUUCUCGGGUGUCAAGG	-0.974
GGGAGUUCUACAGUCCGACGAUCUAACUUUAGAGGAGGAUCUGAUGGAUAUGGCAGUGGUCGUGGAUUUGGGGAUGGCUAUAAUGGGUAUGGAGGAGGACCUGGAGGUGGCAAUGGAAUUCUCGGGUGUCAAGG	0.148
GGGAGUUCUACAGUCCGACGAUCUGGCCCUGGUGGCAUGCGGGGAGGAAGAGGUGGCCUCAUGGAUCGUGGUGGUCCCGGUGGAAUGUUCAGAGGUGGCGGUGGUGGAGACAGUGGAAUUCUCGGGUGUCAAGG	0.561

Set 2 — method: universal PBM; molecule type: double-stranded DNA, one strand shown; matrix: in vitro; concentration: not given; direction: higher = stronger binding
Target: Sal-like protein 4, full length isoform B (SALL4, Homo sapiens, UniProt Q9UJQ4-2, residues 1-616)
Setting: 8-mer, flanks averaged, mean of replicates
Target sequence (chain): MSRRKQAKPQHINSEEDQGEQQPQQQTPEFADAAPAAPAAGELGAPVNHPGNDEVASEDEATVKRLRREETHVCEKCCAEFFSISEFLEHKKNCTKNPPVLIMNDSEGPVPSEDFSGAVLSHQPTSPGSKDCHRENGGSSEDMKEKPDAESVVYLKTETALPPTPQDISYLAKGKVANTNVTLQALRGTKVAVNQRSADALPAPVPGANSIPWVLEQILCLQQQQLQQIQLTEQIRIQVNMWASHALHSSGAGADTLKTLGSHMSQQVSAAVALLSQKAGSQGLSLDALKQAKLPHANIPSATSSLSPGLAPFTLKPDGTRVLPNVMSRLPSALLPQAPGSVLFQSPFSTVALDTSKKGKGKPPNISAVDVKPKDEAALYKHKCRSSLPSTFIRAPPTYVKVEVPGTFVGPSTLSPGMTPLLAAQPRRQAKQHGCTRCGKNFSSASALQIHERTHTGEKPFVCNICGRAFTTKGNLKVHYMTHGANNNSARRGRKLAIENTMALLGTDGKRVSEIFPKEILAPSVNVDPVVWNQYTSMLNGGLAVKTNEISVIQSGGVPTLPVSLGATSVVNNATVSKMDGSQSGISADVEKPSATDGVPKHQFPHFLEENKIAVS
Oligonucleotide	E-score
AGGCCCCA	-0.293
AATTCAAT	0.257
CTCGTAGC	-0.0949
GTTCTCAA	0.143
ATTCACCG	-0.0139
CGGTTGCC	-0.284
GTTCCCGA	-0.171
CCCTCGCA	-0.217
AGTCTACG	-0.0881
ACCAGAGC	-0.166
GTTTTGTA	0.17
GATCGCCC	-0.338
GTAAGCCA	-0.116
AAGAGTAG	0.0737
AGGATTAT	0.249
TGACCCAA	0.0249
AATCGTGG	0.133
GCCTCATA	0.147
AGATTAAT	0.303
ATGTTAAC	0.2
CGGACTGA	-0.272
CAACACCA	-0.0136
ATGGCGCG	-0.00948
AAAGGTAC	0.0187
GACCTTGA	0.112

Set 3 — method: protein binding microarray; molecule type: double-stranded DNA, one strand shown; matrix: in vitro; concentration: not given; baseline: not given; direction: higher = stronger binding
Target: Histone acetyltransferase KAT6A, winged helix 1, GST fusion (KAT6A, Homo sapiens, UniProt Q92794, residues 1-85)
Setting: 8-mer, flanks averaged, mean of 2 arrays, mostly near background
Target sequence (chain): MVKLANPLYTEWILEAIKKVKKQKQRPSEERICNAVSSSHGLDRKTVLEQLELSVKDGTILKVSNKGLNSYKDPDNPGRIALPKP
Oligonucleotide	E-score
CACCGAAG	-0.0274
ATCAAGGC	-0.114
AGGGGAGA	-0.00605
TCCGCGAA	0.218
ATACCTTA	-0.258
AAACTGAG	-0.0832
ATCCACGC	0.0987
AGAGAGCG	0.163
ACTTATAG	0.0259
ATCGGACG	0.112
AAAAATTA	0.0725
GACATGCA	-0.208
AACTGTGA	-0.0196
AGTATCCG	0.0569
ATCGCGCA	0.26
CGCTTGAC	0.231
CGAATAGC	-0.0983

Set 4 — method: RNA Bind-n-Seq; molecule type: RNA; matrix: in vitro; concentration: not given; setting: RNA with constant flanks, ends assumed; baseline: input RNA pool; direction: higher = stronger binding
Target: RING finger protein unkempt homolog, zinc fingers 1-6, GST-SBP tag (UNK, Homo sapiens, UniProt Q9C0B0, residues 30-357)
Chain of UniProt Q9C0B0 (30-357, looked up): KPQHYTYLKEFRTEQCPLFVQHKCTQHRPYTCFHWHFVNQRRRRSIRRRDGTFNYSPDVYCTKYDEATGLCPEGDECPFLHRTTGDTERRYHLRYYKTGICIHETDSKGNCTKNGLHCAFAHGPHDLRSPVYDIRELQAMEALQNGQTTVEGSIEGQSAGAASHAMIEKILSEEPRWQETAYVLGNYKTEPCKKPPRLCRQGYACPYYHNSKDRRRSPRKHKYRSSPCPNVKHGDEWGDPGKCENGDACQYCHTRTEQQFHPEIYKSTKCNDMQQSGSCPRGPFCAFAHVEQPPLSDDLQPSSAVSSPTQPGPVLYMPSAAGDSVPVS
Oligonucleotide	bound/input enrichment [ratio]
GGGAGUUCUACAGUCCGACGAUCGAGGGCAGGGCUCACAGACUCCAAAAGCUGACAAAGUCCCAUCACUUACACAAACAGUGAUUCCGAACAACUUCGAAAAAUCAGGCGGCGAAGUCCCCACGAUGACACCGAGUCCUUUACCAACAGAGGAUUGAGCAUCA	0.128
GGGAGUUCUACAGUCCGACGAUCGAAAUCCAUAUUUAUUUUGUAAUUAACUGUCAAGCCUGUGGAUGAUUUUUUUGAACUUGGCCGUUCAUAAAGGUUUACAGUGAAUAAAAGGAUAUCAUCUUGAGUAUAGCAAUAUCAAAACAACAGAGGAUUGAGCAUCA	0.551
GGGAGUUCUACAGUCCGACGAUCCCACAGCCCUUAUUACAGCAGCCUCAGCAAAAAGCUGGUUUAUUGCAGCCUCCUGUUCGUACCGUUUCACAGCCACAACCGGCACGACGAUUAGAUCCCCCAUCCCGAUUUUCAGGAAGACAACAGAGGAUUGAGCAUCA	0.772
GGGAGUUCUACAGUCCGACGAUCGGAUUGUAGAUUUUUGCUUUUUCUUUUUGUUUUUAAAACUUAUUCCAAUUGCUAAAUUGGCCGUUUUUCAGUCUUUAUAAAUACAGGAUUAAAAAUAUAUAUACAGUUAUAUGAAAUGUUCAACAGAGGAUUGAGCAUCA	0.877
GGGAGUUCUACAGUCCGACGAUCAAUUUUCCUUUCAUAUAAAAACUGAUCUCCCCUCCUCCCAUAAAUAUUUUUACUUCAAGGACCCGGACCAGUUUGUUUUGGGCCCUUAUGUGAAAAUUUGUCUCGUUUAAGAGGCAUCUUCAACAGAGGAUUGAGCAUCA	0.233
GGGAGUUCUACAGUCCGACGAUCCUGGGAAUUGGGCCAGGACCAGUAGAACUAAUUGAUGAAGUUACUGGCCACCUAAAACUUUACCCGAUAAGCUUUUGCUUGAUGGAGAUUCUGUCCGAAGACUAUGGAGCCUGUCAGUAACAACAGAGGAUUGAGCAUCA	0.207
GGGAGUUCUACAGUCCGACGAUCAUCAUCUGCAUCGUCACGUACGUGCUGAACUUCCUUCUUCUCAUUAUCAACUACAAACGACCCGUUUACUUGAACGAGGCCUGGAAGCGGCAGCUGCAACCCAAGCAGGACUGACGCCCGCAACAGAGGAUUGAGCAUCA	0.109
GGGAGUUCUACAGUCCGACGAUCGCUCAAAAAGUGUUUUUCAGACCUCGGUAUUCCUAAUGUGGGAUGUGACUUUAUUUUAUUUUCCGCCGCAAAUUUGGAUGUAGACUGACAGACAUAGCUGAAUGUCUUAAUAAAUUUAAACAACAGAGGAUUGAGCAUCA	0.677
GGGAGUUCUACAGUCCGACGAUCCUGUAGUCCUCAGAAAGGAAGCUCCAGGACAUUUCAUGACUAUAAUGCAUGCACUAUUUAUACCGACUGACCUGGCUUUAAAAGAUGGAGCCUGGCAAGUUCCUCACAUAAUCAAUGUAUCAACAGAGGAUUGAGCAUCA	0.116
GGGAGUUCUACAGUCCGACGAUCCAUAUUAAAUAUGACCCAGAAAUUAUUGGUCCUAGAGAUAUUAUCCAUACAAUUGAAAGCUCCGGUUUUGAAGCUUCUUUGGUCAAGAAGGAUCGGUCAGCAAGUCACUUAGAUCAUAAACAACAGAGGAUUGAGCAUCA	2.31
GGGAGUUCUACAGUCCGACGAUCCCACGGAUGUUCAAUAUCAUCUCAGAUUCUCCAUCUCCUAUUGCUGCAAGAACACUGAUAUCCGUGGCUAAAUCUGUGCAGAACUUAGCAAAUCUUGUGGAAUUUGGAGCUAAGGAGCCCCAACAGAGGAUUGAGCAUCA	0.169

For quick reference, copied from above (set 3):
Oligonucleotide	E-score
TCCGCGAA	0.218
ATCGCGCA	0.26
ATACCTTA	-0.258
GACATGCA	-0.208
CACCGAAG	-0.0274
CGAATAGC	-0.0983
CGCTTGAC	0.231
